Measured values pooled from the literature.
A part holds a random share of what one study measured. Substitutions count along the parent as printed.
Chain of UniProt Q01959 (whole entry, looked up): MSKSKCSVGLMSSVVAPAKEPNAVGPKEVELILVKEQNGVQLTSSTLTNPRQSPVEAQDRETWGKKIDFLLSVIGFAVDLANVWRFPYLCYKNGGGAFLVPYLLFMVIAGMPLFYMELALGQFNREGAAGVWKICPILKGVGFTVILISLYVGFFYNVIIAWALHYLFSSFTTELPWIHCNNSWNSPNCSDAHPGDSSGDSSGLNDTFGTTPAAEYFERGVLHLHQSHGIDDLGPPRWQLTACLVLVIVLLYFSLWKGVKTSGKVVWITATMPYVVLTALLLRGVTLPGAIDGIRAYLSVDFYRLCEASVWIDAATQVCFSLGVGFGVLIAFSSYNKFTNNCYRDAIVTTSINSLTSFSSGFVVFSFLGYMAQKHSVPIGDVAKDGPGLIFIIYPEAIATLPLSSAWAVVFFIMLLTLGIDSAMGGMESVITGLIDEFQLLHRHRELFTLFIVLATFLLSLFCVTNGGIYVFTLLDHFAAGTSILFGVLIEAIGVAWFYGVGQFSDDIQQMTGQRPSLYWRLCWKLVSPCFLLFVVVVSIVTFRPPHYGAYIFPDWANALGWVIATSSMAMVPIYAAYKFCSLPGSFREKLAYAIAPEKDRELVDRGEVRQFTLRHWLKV

Study 1
Target: UBE2D3 UBC core domain (UniProt P61077)
Technique: yeast two-hybrid
Medium: yeast
Setting: mostly zero background
Reference: not given
Reading: higher = stronger interaction
B1: RLIM RING domain (UniProt Q9NVW2); chain SFGENDALKTCSVCITEYTEGNKLRKLPCSHEYHVHCIDRWLSENSTCPICRRAVLASGNRE
B2: TRIM37 RING domain (UniProt O94972); chain SVESIAEVFRCFICMEKLRDARLCPHCSKLCCFSCIRRWLTEQRAQCPHCRAPLQLRELVN
B3: RNF152 RING domain (UniProt Q8N8N0); chain ETLSQDSLLECQICFNYYSPRRRPKLLDCKHTCCSVCLQQMRTSQKDVRCPWCRGVTKLPPGFS
B4: TRIM26 RING domain (UniProt Q12899); chain PLRSLEEEVTCSICLDYLRDPVTIDCGHVFCRSCTTDVRPISGSRPVCPLCKKPFKKENIRP
B5: ANAPC11 RING domain (UniProt Q9NYG5); chain GICRMAFNGCCPDCKVPGDDCPLVWGQCSHCFHMHCILKWLHAQQVQQHCPMCRQEWKFKE
B6: TRIM31 RING domain (UniProt Q9BZY9); chain FVNKLQEEVICPICLDILQKPVTIDCGHNFCLKCITQIGETSCGFFKCPLCKTSVRKNAIRF
Target sequence (chain): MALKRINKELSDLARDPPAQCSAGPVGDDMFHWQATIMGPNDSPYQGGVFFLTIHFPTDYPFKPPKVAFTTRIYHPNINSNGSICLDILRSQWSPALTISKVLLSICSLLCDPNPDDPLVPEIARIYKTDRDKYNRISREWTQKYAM
Molecule | lacZ reporter activity
QVQSRTKIEECVVCSDKKAAVLFQPCGHMCACENCANLMKKCVQCRAVVERRVPFI (MIB1 RING domain (UniProt Q86YT6)) | 0
B1 (RLIM RING domain) | 0
YPEEVDDDLICHICLQALLDPLDTPCGHTYCTLCLTNFLVEKDFCPMDRKPLVLQHCKK (LNX1 RING domain (UniProt Q8TBB1)) | 0
B2 (TRIM37 RING domain) | 0
FVKTVEDKYKCEKCHLVLCSPKQTECGHRFCESCMAALLSSSSPKCTACQESIVKDKVF (TRAF3 RING domain (UniProt Q13114)) | 0
B3 (RNF152 RING domain) | 0
RYRQMEERITCPICIDSHIRLVFQCGHGACAPCGSALSACPICRQPIRDRIQIF (MIB2 RING domain (UniProt Q96AX9)) | 0
B4 (TRIM26 RING domain) | 0
B5 (ANAPC11 RING domain) | 0
PEELAVNNDDCAICWDSMQAARKLPCGHLFHNSCLRSWLEQDTSCPTCRMSLNIADNNR (AMFR RING domain (UniProt Q9UKV5)) | 4920
B6 (TRIM31 RING domain) | 0

Study 2
Target: CCNE1, cyclin fold, Cln2 fusion (human)
Technique: yeast growth competition, sequencing
Medium: yeast
Setting: strong parent motif
Reference: not given
Reading: higher = stronger binding
Parent: viral docking peptide; KGVKRKLFAEDSS; partner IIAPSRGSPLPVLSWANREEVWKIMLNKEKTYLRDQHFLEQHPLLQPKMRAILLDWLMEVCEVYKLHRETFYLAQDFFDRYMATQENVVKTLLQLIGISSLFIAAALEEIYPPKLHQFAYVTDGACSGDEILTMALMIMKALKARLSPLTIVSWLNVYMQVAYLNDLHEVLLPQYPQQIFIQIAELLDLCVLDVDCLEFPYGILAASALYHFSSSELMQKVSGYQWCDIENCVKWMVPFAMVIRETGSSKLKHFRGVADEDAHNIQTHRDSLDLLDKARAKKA
Substitution | normalised enrichment score
G2Q | 7.26
K4S | 6.86
K6R | 7.88

Study 3
Target: Interferon regulatory factor 7, full length, phosphomimetic (IRF7, Homo sapiens, UniProt Q92985, residues 1-503, S471D/S472D/S475D/S476D/S477D/S483D/S484D/S487D)
Technique: protein-binding microarray
Form: double-stranded DNA, one strand shown
Medium: in vitro
Tested at: 2200 nM top
Setting: 60-bp whole probe
With: salmon DNA 0.4 mg/ml
Reference: random background probes
Reading: higher = stronger binding
All sequences stand within: GCCTAGCAC … GTCTTGATTCGCTTGACGCTGCTG
Construct (chain): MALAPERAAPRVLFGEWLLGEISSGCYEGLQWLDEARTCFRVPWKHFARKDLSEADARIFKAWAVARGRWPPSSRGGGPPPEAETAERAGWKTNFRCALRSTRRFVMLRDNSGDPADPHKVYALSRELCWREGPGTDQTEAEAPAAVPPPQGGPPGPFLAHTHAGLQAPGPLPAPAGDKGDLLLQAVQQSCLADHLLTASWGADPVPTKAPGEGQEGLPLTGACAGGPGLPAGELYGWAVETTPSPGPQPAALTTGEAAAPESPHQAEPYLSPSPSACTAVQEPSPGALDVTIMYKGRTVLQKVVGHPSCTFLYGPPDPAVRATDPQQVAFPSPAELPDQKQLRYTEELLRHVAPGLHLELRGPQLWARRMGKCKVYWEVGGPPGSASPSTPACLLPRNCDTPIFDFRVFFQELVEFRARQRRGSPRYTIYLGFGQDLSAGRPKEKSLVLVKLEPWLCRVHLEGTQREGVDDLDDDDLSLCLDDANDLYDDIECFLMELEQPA
Oligonucleotide | fitted relative affinity [z-score]
CTAGGTCTCCTTCTCCTTTAGTGCTAG | 1.06
TTAGGTATCCTACTGCTATAGTGCTAG | 0.583
TCACATCGTAAGCAAAAACTGTGCTAG | 0.588
TTAGAAATCAGTTTCGATTAGTGCTAG | 5.08
TTACGACTGGACACTGGGTTAGTGCTA | 0.241
ATGTATATATGTGTATATATGTGCTAG | 1.04
TTAGAACTGGGGAATCGATTAGTGCTA | -0.319
GACGATATCAGTCTCTAGACGTGCTAG | 0.273

Other studies, line by line
Compound | target | test | conditions | endpoint | value
COc1cccc(CNC(=O)c2nc3scc(COCc4ccc(C(=O)O)cc4)c3c(=O)[nH]2)c1 | Sodium-dependent dopamine transporter (SLC6A3, Homo sapiens, UniProt Q01959) | binding, radioligand binding | 10 µM | inhibition | 9.28%

A few entries again (study 3):
Oligonucleotide | fitted relative affinity [z-score]
TTAGAAATCAGTTTCGATTAGTGCTAG | 5.08
TTACGACTGGACACTGGGTTAGTGCTA | 0.241
ATGTATATATGTGTATATATGTGCTAG | 1.04
